{"data": "Published values gathered from unrelated publications", "note": "Each numbered part is a random draw from the data of one study; scales do not carry over between parts. Values joined by “and” are separate records of one study, mostly repeats; a detail may differ.", "chain of UniProt Q9UJQ4 (whole entry, looked up)": "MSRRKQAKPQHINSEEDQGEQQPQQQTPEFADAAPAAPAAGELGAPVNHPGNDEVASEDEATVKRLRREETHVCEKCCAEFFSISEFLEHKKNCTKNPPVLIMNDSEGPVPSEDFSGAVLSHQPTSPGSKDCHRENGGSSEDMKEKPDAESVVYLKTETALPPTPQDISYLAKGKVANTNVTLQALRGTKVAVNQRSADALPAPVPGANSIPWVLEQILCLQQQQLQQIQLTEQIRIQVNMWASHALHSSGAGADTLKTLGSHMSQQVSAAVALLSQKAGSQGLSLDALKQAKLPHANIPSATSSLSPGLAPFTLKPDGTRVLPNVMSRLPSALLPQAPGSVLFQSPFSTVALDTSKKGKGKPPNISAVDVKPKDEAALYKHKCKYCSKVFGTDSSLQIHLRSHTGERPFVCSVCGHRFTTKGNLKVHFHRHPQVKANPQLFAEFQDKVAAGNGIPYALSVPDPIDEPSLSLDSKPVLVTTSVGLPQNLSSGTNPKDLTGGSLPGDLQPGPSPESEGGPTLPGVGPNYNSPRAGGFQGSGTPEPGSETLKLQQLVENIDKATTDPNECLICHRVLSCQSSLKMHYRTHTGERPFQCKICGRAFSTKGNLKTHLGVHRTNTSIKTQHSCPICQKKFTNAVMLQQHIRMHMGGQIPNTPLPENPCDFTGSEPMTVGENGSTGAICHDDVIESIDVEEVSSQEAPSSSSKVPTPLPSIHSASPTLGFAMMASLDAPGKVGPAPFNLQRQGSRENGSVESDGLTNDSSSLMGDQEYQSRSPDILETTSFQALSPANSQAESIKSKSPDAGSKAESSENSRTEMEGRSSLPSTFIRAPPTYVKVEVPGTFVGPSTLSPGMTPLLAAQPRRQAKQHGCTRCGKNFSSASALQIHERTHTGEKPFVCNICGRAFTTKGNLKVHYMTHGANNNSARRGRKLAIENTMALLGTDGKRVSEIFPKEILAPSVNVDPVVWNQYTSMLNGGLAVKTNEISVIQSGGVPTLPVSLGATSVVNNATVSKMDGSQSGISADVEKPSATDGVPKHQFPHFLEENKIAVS", "chain of UniProt Q9Y2K2 (whole entry, looked up)": "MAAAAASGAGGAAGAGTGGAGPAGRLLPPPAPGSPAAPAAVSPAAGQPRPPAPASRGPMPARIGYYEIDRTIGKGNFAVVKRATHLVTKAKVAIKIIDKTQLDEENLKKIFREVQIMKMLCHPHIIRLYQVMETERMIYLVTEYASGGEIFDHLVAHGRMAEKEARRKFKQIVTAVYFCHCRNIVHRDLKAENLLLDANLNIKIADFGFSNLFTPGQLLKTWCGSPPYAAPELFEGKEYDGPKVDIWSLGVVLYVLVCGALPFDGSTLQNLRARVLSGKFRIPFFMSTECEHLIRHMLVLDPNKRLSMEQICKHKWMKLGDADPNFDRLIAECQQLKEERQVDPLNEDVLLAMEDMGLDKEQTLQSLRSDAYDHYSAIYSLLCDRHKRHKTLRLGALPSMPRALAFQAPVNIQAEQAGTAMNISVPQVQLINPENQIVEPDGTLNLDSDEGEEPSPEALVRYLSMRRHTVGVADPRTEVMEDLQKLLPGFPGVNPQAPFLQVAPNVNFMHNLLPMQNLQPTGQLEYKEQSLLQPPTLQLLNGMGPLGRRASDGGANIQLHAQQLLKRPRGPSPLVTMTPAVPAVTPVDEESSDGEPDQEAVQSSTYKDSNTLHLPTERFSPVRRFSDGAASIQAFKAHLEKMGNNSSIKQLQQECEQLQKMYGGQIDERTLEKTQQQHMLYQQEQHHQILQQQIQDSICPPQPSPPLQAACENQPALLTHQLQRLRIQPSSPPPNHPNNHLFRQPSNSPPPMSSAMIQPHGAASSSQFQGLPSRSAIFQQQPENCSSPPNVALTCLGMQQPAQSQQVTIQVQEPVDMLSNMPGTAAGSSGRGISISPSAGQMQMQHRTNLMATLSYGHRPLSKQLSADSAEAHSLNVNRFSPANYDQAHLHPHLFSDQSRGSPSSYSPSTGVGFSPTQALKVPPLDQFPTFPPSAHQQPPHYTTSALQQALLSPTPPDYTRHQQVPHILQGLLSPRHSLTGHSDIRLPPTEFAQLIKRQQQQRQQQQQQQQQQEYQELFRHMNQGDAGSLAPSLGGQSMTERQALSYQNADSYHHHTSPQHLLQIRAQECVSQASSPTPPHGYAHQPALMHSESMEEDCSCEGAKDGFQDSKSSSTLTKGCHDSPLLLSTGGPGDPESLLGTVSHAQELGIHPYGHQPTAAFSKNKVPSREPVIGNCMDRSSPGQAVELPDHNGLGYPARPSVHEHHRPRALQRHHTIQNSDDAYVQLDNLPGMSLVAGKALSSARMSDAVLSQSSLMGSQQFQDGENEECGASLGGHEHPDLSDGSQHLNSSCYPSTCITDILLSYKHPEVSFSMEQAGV", "chain of UniProt Q8WU08 (whole entry, looked up)": "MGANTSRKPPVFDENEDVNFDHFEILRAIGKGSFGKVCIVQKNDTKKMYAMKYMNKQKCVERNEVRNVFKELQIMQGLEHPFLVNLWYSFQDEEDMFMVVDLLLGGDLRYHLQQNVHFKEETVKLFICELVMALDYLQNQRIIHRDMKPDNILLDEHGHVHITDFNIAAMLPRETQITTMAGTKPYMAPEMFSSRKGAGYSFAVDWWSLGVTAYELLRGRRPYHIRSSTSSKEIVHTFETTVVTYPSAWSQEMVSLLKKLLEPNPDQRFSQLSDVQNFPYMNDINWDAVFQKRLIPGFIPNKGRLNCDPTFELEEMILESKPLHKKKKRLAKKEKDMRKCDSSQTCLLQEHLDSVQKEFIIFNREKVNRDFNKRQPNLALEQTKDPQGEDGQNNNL"}
{"data": "Series 1", "Compound": "O=C1CCC(N2Cc3cc(C4CCN(Cc5ccccc5)CC4)ccc3C2=O)C(=O)N1 (centres unmarked)", "mode": "degrader", "method": "HiBiT", "cells": "HEK293", "GSPT1": "Eukaryotic peptide chain release factor GTP-binding subunit ERF3A (GSPT1, Homo sapiens, UniProt P15170)", "chain of UniProt P15170 (whole entry, looked up)": "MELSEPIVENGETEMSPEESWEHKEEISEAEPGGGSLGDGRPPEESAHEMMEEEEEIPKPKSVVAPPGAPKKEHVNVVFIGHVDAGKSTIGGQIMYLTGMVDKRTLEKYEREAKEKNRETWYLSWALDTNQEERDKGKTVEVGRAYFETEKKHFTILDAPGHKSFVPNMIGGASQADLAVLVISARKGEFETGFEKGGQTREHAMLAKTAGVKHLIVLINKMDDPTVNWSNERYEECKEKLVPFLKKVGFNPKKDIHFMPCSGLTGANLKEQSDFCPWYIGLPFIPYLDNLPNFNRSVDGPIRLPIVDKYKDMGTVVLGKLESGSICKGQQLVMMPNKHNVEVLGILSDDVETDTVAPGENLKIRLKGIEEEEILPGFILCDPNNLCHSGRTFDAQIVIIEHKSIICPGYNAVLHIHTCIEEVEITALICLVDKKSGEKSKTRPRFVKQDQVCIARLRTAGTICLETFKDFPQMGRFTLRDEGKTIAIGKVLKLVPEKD"}
{"target": "GSPT1", "setting": "0.0005081 µM", "remaining protein": "108% and 102%"}
{"target": "GSPT1", "setting": "10 µM, 6 h", "remaining protein": "109%"}
{"target": "Sal-like protein 4 (SALL4, Homo sapiens, UniProt Q9UJQ4)", "setting": "0.01372 µM", "remaining protein": "59.7% and 60.7%"}
{"data": "Series 2", "Structure (SMILES)": "CO[C@@H](C)c1c(Nc2ccc([C@@H](N(C)C(=O)C3CCS(=O)(=O)CC3)C(F)(F)F)cc2)cnc2cc(Cl)nn12", "effect on": "cell-free assay", "method": "competition with immobilised ligand", "concentration": "1 µM"}
{"target": "SIK3 (Homo sapiens, UniProt Q9Y2K2)", "remaining binding [%]": 100}
{"target": "STK32A (Homo sapiens, UniProt Q8WU08)", "remaining binding [%]": 100}
{"target": "PIK3CA (Homo sapiens, UniProt P42336, E542K)", "remaining binding [%]": 78}
{"target": "Tyrosine-protein kinase ABL1, phosphorylated (ABL1, Homo sapiens, UniProt P00519, T315I)", "remaining binding [%]": 78}
{"target": "CAMKK2 (Homo sapiens, UniProt Q96RR4)", "remaining binding [%]": 100}
{"target": "PRKCH (Homo sapiens, UniProt P24723)", "remaining binding [%]": 78}
{"target": "MAP2K4 (Homo sapiens, UniProt P45985)", "remaining binding [%]": 100}
{"data": "Series 3", "host": "human", "medium": "microsomes or S9", "concentration": "2 µM", "time": "0.5 h"}
{"Structure (SMILES)": "COc1ccc(Cn2c(=O)[nH]c(-c3ccc(F)cc3)c(-c3ccc(F)cc3)c2=O)cc1", "remaining compound": "> 100%"}
{"Structure (SMILES)": "COc1ccc(OC)c(CNC(=O)C23CCCC=C2N(C2CCCC2)C(=O)CC3)c1 (centres unmarked)", "remaining compound": "1.18%"}
{"Structure (SMILES)": "COc1ccc(S(=O)(=O)Nc2ncccn2)cc1", "remaining compound": "82.1%"}
{"Structure (SMILES)": "O=c1ccccn1Cc1nc2cc(Cl)ccc2n1CCO", "remaining compound": "> 99%"}
{"Structure (SMILES)": "CC(Oc1cccnc1N)c1nnc2ccc(Cl)nn12 (centres unmarked)", "remaining compound": "92.5%"}
{"Structure (SMILES)": "CCc1nc(C)sc1Cn1cc(-c2cn(CC)nc2C)nn1", "remaining compound": "97%"}
{"Structure (SMILES)": "CCOc1cc(=O)n2c(c1C(=O)NCc1ccc(C)o1)CCCCC2", "remaining compound": "79.7%"}
{"Structure (SMILES)": "C=C(C)[C@@H]1CCC2=CC(=O)C[C@@H](C)[C@]2(C)C1", "remaining compound": "4.68%"}
{"Structure (SMILES)": "O=C(Nn1cnc2ccccc21)c1nc(-c2ccc(F)cc2)n2c1CCCCC2", "remaining compound": "58.3%"}
{"Structure (SMILES)": "Cn1c(/C=C2\\SC(=O)NC2=O)cc2c1-c1ccccc1OC2", "remaining compound": "21.3%"}
{"Structure (SMILES)": "COc1ccc(C2c3cccn3-c3sc4c(c3CN2C(=O)NC(C)C)CCCC4)cc1 (centres unmarked)", "remaining compound": "4.28%"}
{"Structure (SMILES)": "O=C1Cc2cc(S(=O)(=O)N3CCN(C(c4ccccc4)c4ccccc4)CC3)cc3c2N1CCC3", "remaining compound": "> 100%"}
{"Structure (SMILES)": "Cc1cc(C)nc(N2N=C(c3ccccc3)CC2=O)n1", "remaining compound": "79.2%"}
{"data": "Series 4", "target": "ALK tyrosine kinase receptor (ALK, Homo sapiens, UniProt Q9UM73)", "effect on": "enzyme activity", "mode": "inhibitor", "concentration": "0.5 µM", "relative to": "control", "chain of UniProt Q9UM73 (whole entry, looked up)": "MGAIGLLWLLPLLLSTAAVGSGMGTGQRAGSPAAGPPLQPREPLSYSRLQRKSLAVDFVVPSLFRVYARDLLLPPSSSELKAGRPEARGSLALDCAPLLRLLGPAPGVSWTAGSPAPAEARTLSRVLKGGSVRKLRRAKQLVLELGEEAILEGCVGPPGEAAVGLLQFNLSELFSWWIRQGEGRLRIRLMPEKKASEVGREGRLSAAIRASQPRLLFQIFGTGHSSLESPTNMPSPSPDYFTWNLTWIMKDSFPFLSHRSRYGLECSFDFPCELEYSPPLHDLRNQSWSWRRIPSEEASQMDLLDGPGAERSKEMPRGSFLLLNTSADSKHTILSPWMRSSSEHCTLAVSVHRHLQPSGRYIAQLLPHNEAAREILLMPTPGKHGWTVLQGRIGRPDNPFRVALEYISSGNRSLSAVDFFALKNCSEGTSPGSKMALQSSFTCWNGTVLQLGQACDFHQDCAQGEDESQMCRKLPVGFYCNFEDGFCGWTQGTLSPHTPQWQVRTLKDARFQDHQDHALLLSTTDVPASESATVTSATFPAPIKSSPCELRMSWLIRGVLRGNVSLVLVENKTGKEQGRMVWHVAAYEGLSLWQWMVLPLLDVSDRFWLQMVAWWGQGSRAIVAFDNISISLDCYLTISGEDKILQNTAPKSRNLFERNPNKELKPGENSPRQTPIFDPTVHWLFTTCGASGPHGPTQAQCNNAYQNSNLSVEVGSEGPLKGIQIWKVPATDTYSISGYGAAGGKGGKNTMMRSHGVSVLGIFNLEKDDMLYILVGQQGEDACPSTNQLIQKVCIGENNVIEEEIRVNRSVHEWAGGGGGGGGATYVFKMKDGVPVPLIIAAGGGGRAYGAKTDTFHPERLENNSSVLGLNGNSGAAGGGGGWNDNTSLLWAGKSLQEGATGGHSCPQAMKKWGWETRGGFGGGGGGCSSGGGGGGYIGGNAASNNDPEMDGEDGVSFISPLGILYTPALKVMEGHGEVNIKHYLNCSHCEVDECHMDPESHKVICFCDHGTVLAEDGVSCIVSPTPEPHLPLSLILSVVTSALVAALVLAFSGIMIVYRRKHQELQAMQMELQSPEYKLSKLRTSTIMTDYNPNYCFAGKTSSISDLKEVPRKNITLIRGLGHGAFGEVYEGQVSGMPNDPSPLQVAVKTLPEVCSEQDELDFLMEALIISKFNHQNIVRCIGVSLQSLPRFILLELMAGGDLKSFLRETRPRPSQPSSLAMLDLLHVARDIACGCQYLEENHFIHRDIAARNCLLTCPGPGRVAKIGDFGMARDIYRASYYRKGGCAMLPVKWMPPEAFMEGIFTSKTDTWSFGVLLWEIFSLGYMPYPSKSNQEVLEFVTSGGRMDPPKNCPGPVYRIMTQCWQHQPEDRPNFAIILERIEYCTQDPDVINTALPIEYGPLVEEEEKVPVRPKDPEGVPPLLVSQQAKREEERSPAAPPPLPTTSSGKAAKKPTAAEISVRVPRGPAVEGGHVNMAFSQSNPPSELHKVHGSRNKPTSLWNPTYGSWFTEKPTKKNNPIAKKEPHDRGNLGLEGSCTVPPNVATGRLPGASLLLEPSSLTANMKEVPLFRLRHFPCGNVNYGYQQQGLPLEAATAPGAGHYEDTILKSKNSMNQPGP"}
{"Structure (SMILES)": "CN(C)c1ccc(C=C2C(=O)Nc3ccccc32)cc1", "remaining activity": "99.7%"}
{"Structure (SMILES)": "O=C(O)c1ccc2c3c1cccc3c(=O)n1c3ccccc3nc21", "remaining activity": "92.7%"}
{"Structure (SMILES)": "Cc1nc(-c2ccccc2)c(-c2ccncc2)o1", "remaining activity": "108%"}
{"Structure (SMILES)": "Nc1[nH]nc2nc3ccccc3nc12", "remaining activity": "96.7%"}
{"Structure (SMILES)": "N#CC(C#N)=C(N)/C(C#N)=C/c1ccc(O)cc1", "remaining activity": "109%"}
{"Structure (SMILES)": "Cc1ccc(Nc2nccc(N(C)c3ccc4c(C)n(C)nc4c3)n2)cc1S(N)(=O)=O", "remaining activity": "85.3%"}
{"Structure (SMILES)": "COc1ccc(C(=O)Nc2sc3c(c2C(N)=O)CCCC3)cc1OC", "remaining activity": "66.2%"}
{"Structure (SMILES)": "O=C1NC(=O)C(c2cn(CCCO)c3ncccc23)=C1c1cnccn1", "remaining activity": "105%"}
{"Structure (SMILES)": "Cn1sc(=O)n(Cc2ccccc2)c1=O", "remaining activity": "94.1%"}
{"Structure (SMILES)": "O=C(Nc1cccc(Nc2cc(Nc3cccc(C(F)(F)F)c3)ncn2)c1)C1CC1", "remaining activity": "112%"}
{"Structure (SMILES)": "Cc1cccc(-c2[nH]c(C(C)(C)C)nc2-c2ccc3c(c2)OCO3)n1", "remaining activity": "103%"}
{"Structure (SMILES)": "C#Cc1cccc(Nc2ncnc3cc(OCCOC)c(OCCOC)cc23)c1", "remaining activity": "86.7%"}
{"Structure (SMILES)": "CNC(=O)c1cc(Oc2ccc(NC(=O)Nc3ccc(Cl)c(C(F)(F)F)c3)cc2)ccn1", "remaining activity": "97.3%"}
{"Structure (SMILES)": "CO[C@H]1C[C@@H]2CC[C@@H](C)[C@@](O)(O2)C(=O)C(=O)N2CCCC[C@H]2C(=O)O[C@H]([C@H](C)C[C@@H]2CC[C@@H](O)[C@H](OC)C2)CC(=O)[C@H](C)/C=C(\\C)[C@@H](O)[C@@H](OC)C(=O)[C@H](C)C[C@H](C)/C=C/C=C/C=C/1C", "remaining activity": "115%"}
{"Structure (SMILES)": "COc1cc2ncnc(Nc3ccc(F)c(Cl)c3)c2cc1OCCCN1CCOCC1", "remaining activity": "98.8%"}
